Experimental data from different studies.
Lines come from different studies, so protocols differ. ± gives the spread as reported.

Structure (SMILES) | test system | setting | how to read | quantity | result
CN1C(=O)[C@@H](Cc2ccc(O)cc2)NC(=O)CNC(=O)[C@H](Cc2ccc3ccccc3c2)NC(=O)[C@H](CCCNC(=N)N)NC(=O)[C@H]1CCCNC(=O)c1ccc(CNC(=O)CN2CCN(CC(=O)O)CCN(CC(=O)O)CCN(CC(=O)O)CC2)cc1 [gallium-68 labelled] | adult reference man, from C57BL/6 mice data, urinary bladder contents | dose not given |  | time-integrated activity coefficient | 0.047 ± 0.005 MBq-h/MBq
CCCC[C@H](NC(=O)CNC(=O)CNC(=O)CN1CCN(CC(=O)O)CCN(CC(=O)O)CC1)C(=O)N[C@H]1CC(=O)NCCCC[C@@H](C(N)=O)NC(=O)[C@H](Cc2c[nH]c3ccccc23)NC(=O)[C@H](CCCNC(=N)N)NC(=O)[C@@H](Cc2ccccc2)NC(=O)[C@H](Cc2c[nH]cn2)NC1=O [technetium-99m labelled] | C57 mouse, brain | iv, 0.037 MBq, 24 h |  | tissue uptake | 0.01 ± 0.01 %ID/g
CCCC[C@H](NC(=O)COCCOCCNC(=O)CN1CCN(CC(=O)O)CCN(CC(=O)O)CC1)C(=O)N[C@H]1CC(=O)NCCCC[C@@H](C(N)=O)NC(=O)[C@H](Cc2c[nH]c3ccccc23)NC(=O)[C@H](CCCNC(=N)N)NC(=O)[C@@H](Cc2ccccc2)NC(=O)[C@H](Cc2c[nH]cn2)NC1=O [copper-64 labelled] | C57 mice, pancreas | intravenous, 0.37 MBq, 0.5 h |  | tissue uptake | 1.1 ± 0.2 %ID/g
CC1=C(I)C(C)=[N+]2C1=C(c1ccc(OCCn3cc(CNC(=O)CSC[C@H](NC(=O)c4ccc(-c5nnc(C)nn5)cc4)C(=O)N[C@@H](CCCNC(=N)N)C(=O)N[C@@H](CCCNC(=N)N)C(=O)N[C@@H](CCCNC(=N)N)C(=O)N[C@@H](CCCNC(=N)N)C(=O)N[C@@H](CCCNC(=N)N)C(=O)N[C@@H](CCCNC(=N)N)C(=O)N[C@@H](CCCNC(=N)N)C(=O)N[C@@H](CCCNC(=N)N)C(N)=O)nn3)cc1)c1c(C)c(I)c(C)n1[B-]2(F)F |  | 1 µM, with: DPBF, 525 nm light | baseline: rose bengal, erythrosine B | singlet oxygen quantum yield | 0.55
N=C(N)NCCC[C@@H]1NC(=O)[C@H](CCCCNC(=O)CC[C@H](NC(=O)CC[C@H](NC(=O)CN2CCN(CC(=O)O)CCN(CC(=O)O)CCN(CC(=O)O)CC2)C(=O)N[C@@H](CCC(=O)NCCCC[C@@H]2NC(=O)[C@@H](Cc3ccccc3)NC(=O)[C@H](CC(=O)O)NC(=O)CNC(=O)[C@H](CCCNC(=N)N)NC2=O)C(=O)NCCCC[C@@H]2NC(=O)[C@@H](Cc3ccccc3)NC(=O)[C@H](CC(=O)O)NC(=O)CNC(=O)[C@H](CCCNC(=N)N)NC2=O)C(=O)NCCCC[C@@H]2NC(=O)[C@@H](Cc3ccccc3)NC(=O)[C@H](CC(=O)O)NC(=O)CNC(=O)[C@H](CCCNC(=N)N)NC2=O)NC(=O)[C@@H](Cc2ccccc2)NC(=O)[C@H](CC(=O)O)NC(=O)CNC1=O [indium-111 labelled] | female athymic nu/nu mice, U87MG tumour | intravenous, 111 kBq, 1 h |  | tissue uptake | 7.98 ± 2.36 %ID/g
Cc1cc(-c2ccc(NC(=O)[C@H](CCCCNC(=O)CCN3C(=O)CC(SCCC(=O)N[C@H](Cc4ccccc4)C(=O)N[C@H]4CSSC[C@@H](C(=O)N[C@H](C(=O)O)[C@@H](C)O)NC(=O)[C@H]([C@@H](C)O)NC(=O)[C@H](CCCCN)NC(=O)[C@@H](Cc5c[nH]c6ccccc56)NC(=O)[C@H](Cc5ccc(O)cc5)NC4=O)C3=O)NC(=O)CN3CCN(CC(=O)O)CCN(CC(=O)O)CCN(CC(=O)O)CC3)c(C)c2)ccc1N=Nc1ccc2c(S(=O)(=O)O)cc(S(=O)(=O)O)c(N)c2c1O (stereo partly drawn) [lutetium-177 labelled] | metastatic NET patients, liver metastases |  |  | residence time | 0.59 ± 0.08 h
CC(C)C[C@H](NC(=O)[C@@H](CCCCNC(=O)CCCCCNC(=O)CN1CCN(CC(=O)O)CCN(CC(=O)O)CCN(CC(=O)O)CC1)NC(=O)[C@H](Cc1ccc(O)cc1)NC(=O)[C@H](CO)NC(=O)[C@H](Cc1c[nH]c2ccccc12)NC(=O)[C@H](Cc1cnc[nH]1)NC(=O)[C@@H]1CCC(=O)N1)C(=O)N[C@@H](CCCNC(=N)N)C(=O)N1CCC[C@H]1C(=O)NCC(N)=O [indium-111 labelled] | female athymic nude mouse, muscle | intravenous, 0.037 MBq, 0.5 h |  | tissue uptake | 0.51 ± 0.34 %ID/g
Cc1cc(-c2ccc(NC(=O)[C@H](CCCCNC(=O)CCOCCOCCC(=O)N[C@H](Cc3ccccc3)C(=O)N[C@H]3CSSC[C@@H](C(=O)N[C@H](C(=O)O)[C@@H](C)O)NC(=O)[C@H]([C@@H](C)O)NC(=O)[C@H](CCCCN)NC(=O)[C@@H](Cc4c[nH]c5ccccc45)NC(=O)[C@H](Cc4ccc(O)cc4)NC3=O)NC(=O)CN3CCN(CC(=O)O)CCN(CC(=O)O)CCN(CC(=O)O)CC3)c(C)c2)ccc1N=Nc1ccc2c(S(=O)(=O)O)cc(S(=O)(=O)O)c(N)c2c1O [lutetium-177 labelled] | patients with metastatic NETs, liver |  |  | residence time | 3.28 ± 1.83 h
N=C(N)NCCC[C@@H]1NC(=O)[C@H](CCCCNC(=O)CNC(=O)CNC(=O)CNC(=O)CC[C@H](NC(=O)CNC(=O)CNC(=O)CNC(=O)CC[C@H](NC(=O)CN2CCN(CC(=O)O)CCN(CC(=O)O)CCN(CC(=O)O)CC2)C(=O)NCC(=O)NCC(=O)NCC(=O)N[C@@H](CCC(=O)NCC(=O)NCC(=O)NCC(=O)NCCCC[C@@H]2NC(=O)[C@@H](Cc3ccccc3)NC(=O)[C@H](CC(=O)O)NC(=O)CNC(=O)[C@H](CCCNC(=N)N)NC2=O)C(=O)NCC(=O)NCC(=O)NCC(=O)NCCCC[C@@H]2NC(=O)[C@@H](Cc3ccccc3)NC(=O)[C@H](CC(=O)O)NC(=O)CNC(=O)[C@H](CCCNC(=N)N)NC2=O)C(=O)NCC(=O)NCC(=O)NCC(=O)NCCCC[C@@H]2NC(=O)[C@@H](Cc3ccccc3)NC(=O)[C@H](CC(=O)O)NC(=O)CNC(=O)[C@H](CCCNC(=N)N)NC2=O)NC(=O)[C@@H](Cc2ccccc2)NC(=O)[C@H](CC(=O)O)NC(=O)CNC1=O [indium-111 labelled] | female athymic nu/nu mice, kidney | intravenous, 1 h |  | tissue uptake | 8.42 ± 0.86 %ID/g

Repeated from above:
Structure (SMILES) | test system | setting | how to read | quantity | result
Cc1cc(-c2ccc(NC(=O)[C@H](CCCCNC(=O)CCOCCOCCC(=O)N[C@H](Cc3ccccc3)C(=O)N[C@H]3CSSC[C@@H](C(=O)N[C@H](C(=O)O)[C@@H](C)O)NC(=O)[C@H]([C@@H](C)O)NC(=O)[C@H](CCCCN)NC(=O)[C@@H](Cc4c[nH]c5ccccc45)NC(=O)[C@H](Cc4ccc(O)cc4)NC3=O)NC(=O)CN3CCN(CC(=O)O)CCN(CC(=O)O)CCN(CC(=O)O)CC3)c(C)c2)ccc1N=Nc1ccc2c(S(=O)(=O)O)cc(S(=O)(=O)O)c(N)c2c1O [lutetium-177 labelled] | patients with metastatic NETs, liver |  |  | residence time | 3.28 ± 1.83 h
